Experimental data gathered from unrelated publications.
Numbered parts are unrelated; each lists some results of a single study. Positions count from the first letter of the parent shown.
Sequence of UniProt O15294 (whole entry, looked up): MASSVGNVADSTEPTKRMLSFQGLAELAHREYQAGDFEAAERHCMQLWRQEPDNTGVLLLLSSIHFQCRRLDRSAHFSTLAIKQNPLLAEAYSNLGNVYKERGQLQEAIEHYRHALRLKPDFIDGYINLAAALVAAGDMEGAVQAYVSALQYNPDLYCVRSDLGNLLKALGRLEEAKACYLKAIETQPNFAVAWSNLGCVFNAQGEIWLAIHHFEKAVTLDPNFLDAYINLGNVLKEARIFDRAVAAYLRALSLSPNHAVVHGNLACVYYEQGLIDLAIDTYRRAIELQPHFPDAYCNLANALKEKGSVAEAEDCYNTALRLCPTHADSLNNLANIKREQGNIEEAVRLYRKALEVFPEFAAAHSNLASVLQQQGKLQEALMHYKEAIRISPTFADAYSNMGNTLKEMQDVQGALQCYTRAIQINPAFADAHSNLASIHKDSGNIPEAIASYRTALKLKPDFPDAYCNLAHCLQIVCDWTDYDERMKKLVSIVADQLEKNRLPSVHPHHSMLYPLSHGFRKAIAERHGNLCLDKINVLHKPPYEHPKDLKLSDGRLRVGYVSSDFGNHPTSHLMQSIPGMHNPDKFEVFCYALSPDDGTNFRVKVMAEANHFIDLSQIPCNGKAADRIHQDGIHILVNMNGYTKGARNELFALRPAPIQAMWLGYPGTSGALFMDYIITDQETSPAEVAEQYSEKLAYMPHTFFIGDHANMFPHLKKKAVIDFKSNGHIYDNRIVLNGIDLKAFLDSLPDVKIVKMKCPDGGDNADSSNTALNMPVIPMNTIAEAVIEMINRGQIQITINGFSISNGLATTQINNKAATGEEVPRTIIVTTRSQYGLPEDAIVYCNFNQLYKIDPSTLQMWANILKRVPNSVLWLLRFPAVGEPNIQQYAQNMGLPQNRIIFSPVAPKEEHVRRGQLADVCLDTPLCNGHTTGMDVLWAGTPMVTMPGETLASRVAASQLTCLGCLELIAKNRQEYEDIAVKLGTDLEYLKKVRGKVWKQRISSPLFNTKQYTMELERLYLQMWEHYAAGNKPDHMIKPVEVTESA

Block 1 — technique: universal PBM; molecule type: double-stranded DNA, one strand shown; sample: in vitro; concentration: not given; direction: higher = stronger binding; measurement: E-score
Target: Sal-like protein 4, full length isoform B (SALL4, Homo sapiens, UniProt Q9UJQ4-2, residues 1-616)
Setting: 8-mer, flanks averaged, mean of replicates
Construct (chain): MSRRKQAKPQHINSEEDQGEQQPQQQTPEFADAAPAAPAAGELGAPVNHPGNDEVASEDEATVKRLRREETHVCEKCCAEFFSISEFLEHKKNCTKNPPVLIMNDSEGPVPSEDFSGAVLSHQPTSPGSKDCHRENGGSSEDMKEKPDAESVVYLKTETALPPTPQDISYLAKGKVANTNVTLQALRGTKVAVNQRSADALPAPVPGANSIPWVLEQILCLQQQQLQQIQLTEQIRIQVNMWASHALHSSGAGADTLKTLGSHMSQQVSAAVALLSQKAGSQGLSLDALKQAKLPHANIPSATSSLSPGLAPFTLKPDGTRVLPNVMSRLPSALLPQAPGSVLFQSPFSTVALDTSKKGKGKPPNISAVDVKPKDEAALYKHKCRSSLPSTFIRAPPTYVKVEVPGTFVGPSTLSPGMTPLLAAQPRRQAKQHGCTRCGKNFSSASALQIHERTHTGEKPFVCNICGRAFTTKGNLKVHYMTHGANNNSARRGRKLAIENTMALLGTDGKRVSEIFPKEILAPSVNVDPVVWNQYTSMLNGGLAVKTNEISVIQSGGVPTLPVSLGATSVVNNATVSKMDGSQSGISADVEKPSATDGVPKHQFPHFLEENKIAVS
GACGGCGA: -0.22
ATTTACTG: 0.242
ATTGCAAG: 0.158
GCGCGCGC: -0.166
GCCCGTAA: -0.0995
ACGTATTC: 0.123
CCGTGTGC: -0.285
ATCGAAAT: 0.126

Block 2 — target: ATF2, bZIP domain (human); technique: DHFR protein complementation; sample: yeast; baseline: wild-type JUN-FOS pair; direction: higher = stronger binding; measurement: binding fitness
Setting: single substitutions, most at no-binding floor
Parent: JUN, bZIP domain (human); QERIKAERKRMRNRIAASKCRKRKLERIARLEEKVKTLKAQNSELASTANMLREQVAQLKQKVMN; partner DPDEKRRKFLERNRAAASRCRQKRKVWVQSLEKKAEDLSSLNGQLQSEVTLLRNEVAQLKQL
K39S: -1.4 natural log
S47G: -1.36 natural log
R53F: -1.6 natural log
S43N: -1.42 natural log
A40H: -1.45 natural log
I28L: -1.26 natural log
T48F: -1.46 natural log
L52T: -1.44 natural log

Block 3 — target: CCNF, cyclin fold, Cln2 fusion (human); technique: yeast growth competition, sequencing; sample: yeast; setting: strong parent motif; baseline: not given; direction: higher = stronger binding; measurement: normalised enrichment score
Parent: E2F1 docking peptide (human); PPVKRRLDLETDH
V3H: 1.58
R6Q: 3.94
E10D: 7.1
P2I: 4.42
K4S: 4.9
P1C: 6.89
D8V: 7.78
R5H: 0.458

Single results of other studies
HSKVHSHDVVTIYHH  enrichment fold change (UDP-N-acetylglucosamine--peptide N-acetylglucosaminyltransferase 110 kDa subunit (OGT, Homo sapiens, UniProt O15294); binding, phage display NGS; peptide; concentration not given; baseline: input library): 3.74
